Measurements collected from several papers.
Every numbered part comes from another study and shows a few of its results, in no order.

Sample 1 — method: RNA Bind-n-Seq; form: RNA; matrix: in vitro; concentration: 200 nM; setting: whole 134-nt RNA, ends assumed; together with: 150 mM LiCl; relative to: input library; reading: higher = stronger binding; all molecules: 7-deaza-guanosine replaces G
Target: Fragile X messenger ribonucleoprotein 1, C-terminal low-complexity region (Fmr1, Mus musculus, UniProt P35922)
Oligonucleotide | log2 enrichment
GGGAGUUCUACAGUCCGACGAUCCCUGUGCUACACAUCGUAUGUACCGAAUCGGGGCCCCCCGGCCCCCCGGGGCCCCCCGGGAAAGUAUUAUGUUACGCCGUUCGGAUCUGCUGGAAUUCUCGGGUGUCAAGG | -1.55
GGGAGUUCUACAGUCCGACGAUCUCCUGUGCUACACAUCGUAUGUACCGAAUCGGGGUUUUUGGGGUUUUUUUGGGGAGGGGAAAGUAUUAUGUUACGCCGUUCGGAUCUGCAUGGAAUUCUCGGGUGUCAAGG | 0.191
GGGAGUUCUACAGUCCGACGAUCGGCAGGAGGAAGAGCGCAGGCGCCGUGAAGAAGAGAUGCGGCGGCAGCAAGAAGAAAUGAUGCGGCGACAGCAGGAAGGAUUCAAGGGAAUGGAAUUCUCGGGUGUCAAGG | 0.793
GGGAGUUCUACAGUCCGACGAUCUGCAUUUCCUGAGCUGAAGAAGGACCCAGACAUGGUGAAGGACAUCAUUAAUGAAGAAGAGGUGCAGUUUCUCAAGACUCUCAGCAGAGGUGGAAUUCUCGGGUGUCAAGG | -2.28

Sample 2 — method: protein-binding microarray; form: double-stranded DNA, one strand shown; matrix: in vitro; concentration: not given; reading: higher = stronger binding
Target: Transcription factor Sp1 (SP1, Homo sapiens, UniProt P08047, residues 1-785, full length assumed)
Chain of UniProt P08047 (whole entry, looked up): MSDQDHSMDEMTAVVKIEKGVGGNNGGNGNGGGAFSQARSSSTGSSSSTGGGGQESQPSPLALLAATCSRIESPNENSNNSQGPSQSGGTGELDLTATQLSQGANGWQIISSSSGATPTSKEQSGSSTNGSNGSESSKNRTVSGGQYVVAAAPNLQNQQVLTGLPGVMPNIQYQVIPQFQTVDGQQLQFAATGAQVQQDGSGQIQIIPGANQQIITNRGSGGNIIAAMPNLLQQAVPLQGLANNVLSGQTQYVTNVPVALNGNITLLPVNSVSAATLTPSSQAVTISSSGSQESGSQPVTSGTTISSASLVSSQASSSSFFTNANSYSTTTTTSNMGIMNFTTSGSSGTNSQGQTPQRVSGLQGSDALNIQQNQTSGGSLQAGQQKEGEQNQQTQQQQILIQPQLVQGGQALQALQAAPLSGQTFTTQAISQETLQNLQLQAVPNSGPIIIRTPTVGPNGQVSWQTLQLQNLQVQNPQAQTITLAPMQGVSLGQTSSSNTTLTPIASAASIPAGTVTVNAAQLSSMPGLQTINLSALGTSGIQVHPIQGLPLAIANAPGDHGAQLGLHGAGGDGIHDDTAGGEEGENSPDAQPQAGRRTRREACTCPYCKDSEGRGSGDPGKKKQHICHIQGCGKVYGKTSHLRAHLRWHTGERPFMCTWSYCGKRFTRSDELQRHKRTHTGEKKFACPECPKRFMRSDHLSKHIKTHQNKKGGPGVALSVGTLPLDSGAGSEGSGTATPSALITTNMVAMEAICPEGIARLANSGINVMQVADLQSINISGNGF
Setting: k-mer, scored over probes, only values ≥0.25
Oligonucleotide | E-score
GGGGAGTA | 0.334
CCCCTCAC | 0.391
AAAGTGGG | 0.289
GCGGGGTA | 0.388

Sample 3 — method: RNA Bind-n-Seq; form: RNA; matrix: in vitro; concentration: 365 nM; relative to: no-protein control; reading: higher = stronger binding
Target: RNA binding protein fox-1 homolog 2, RRM domain, GST-SBP tag (RBFOX2, Homo sapiens, UniProt O43251-10, residues 100-194)
Setting: natural RNA segment, single round, ends assumed
All sequences stand within: GGGAGUUCUACAGUCCGACGAUC … UGGAAUUCUCGGGUGCCAA
Construct (chain): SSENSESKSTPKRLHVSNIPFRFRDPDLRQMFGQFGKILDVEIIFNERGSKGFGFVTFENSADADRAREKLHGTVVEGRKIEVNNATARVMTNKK
Oligonucleotide | RBNS enrichment (R)
ACAGAGCUACCUUUUGGGAUGAUUGCUUGAUUGUUUUUUUAUCUGAGAAUUCUAGAUAGAUAGCUAAUCUGCUUUUAAUCAUGACAUUUUAAUCUACCUCUGUCUCUUUA | 0.397
AAAUGGAAUAUUUGCUGAAUGAAUUAAGCAUAGAAAAUGUCAACCCAUCAGAAUUAUAUUUAUACAUAUUGGUGGAUAAGUUCUUGUCUUCCCACAUCAGAGAAUUUUUU | 0.352
CUUAGUGCUUUGAGGAUUUUAUUUUCUCCCUUACUACGCUUGCUUGACGUCACUCUCUCUCGACCUCCAAACAGCAGGACUCUUUCUCUGGGAAACCAUCCUUCCAAAAC | 0.309
AUGGAAGAAAAAUCUCAACCAAAGUUAUGCUCUUCCUGACAAGCUGACCCUUGAGUUAAUUUUAGCACAACUCAUUCUUCAGUGCCUCAUUAUGAAAGACAAAAAGCAUC | 0.817
CUGCCUGGCAGGGACGCCAGUACUACUGUAACUGCAGCAGGAGCUGCCCGGCCUGCCUUCUGGCCCCACGCCCACAGGCGUAGUCACAUCUUUGUACUGUACUCCCCUGU | 0.153

Other studies, line by line
Molecule | target | assay | test system | setting | how to read | endpoint | value
PhoQ, residues 284 288 289 292 302 303 QWQEDG | PhoP, residues 12 14 15 18 19 FWNTL (Escherichia coli, UniProt P23836) | Sort-seq, measured: YFP reporter | E. coli | PhoQ-PhoP variant library, together with: 10 µM Mg2+ | relative to: high Mg2+ state, higher = stronger signaling | fold induction | 1.16

Repeated from above (sample 3):
Oligonucleotide | RBNS enrichment (R)
ACAGAGCUACCUUUUGGGAUGAUUGCUUGAUUGUUUUUUUAUCUGAGAAUUCUAGAUAGAUAGCUAAUCUGCUUUUAAUCAUGACAUUUUAAUCUACCUCUGUCUCUUUA | 0.397
AAAUGGAAUAUUUGCUGAAUGAAUUAAGCAUAGAAAAUGUCAACCCAUCAGAAUUAUAUUUAUACAUAUUGGUGGAUAAGUUCUUGUCUUCCCACAUCAGAGAAUUUUUU | 0.352
